# Experimental data of several laboratories.
# Parts stem from different laboratories: compare values within a part only. Substitutions count along the parent as printed.

# Series 1
# Target: Fragile X messenger ribonucleoprotein 1, C-terminal low-complexity region (Fmr1, Mus musculus, UniProt P35922)
# Technique: RNA Bind-n-Seq
# Molecule type: RNA
# Medium: in vitro
# Tested at: 200 nM
# Setting: whole 134-nt RNA, ends assumed
# Together with: 150 mM KCl
# Relative to: input library
# Direction: higher = stronger binding
# Constant ends, left off below: GGGAGUUCUACAGUCCGACGAUC … UGGAAUUCUCGGGUGUCAAGG
Oligonucleotide,log2 enrichment
UGGGAGGUGGAUUUUGUUUAUUUUUAUAGCUCAUUUCCAGGGGUGGGAAUUUUUUUUUAAUAUGUGUCAUGAAUAAAGUUGUUUUUGAAA,0.274
CUGUGCUACACAUCGUAUGUACCGAAUCGGGGUUUUUUUGGGGUUUUUGGGGAAAAAGGGGAAAGUAUUAUGUUACGCCGUUCGGAUCUG,-0.261
UCAAGUCCUGUGCUACACAUCGUAUGUACCGAAUCGGAAAAAGGUUUUUGGUGGAAAGUAUUAUGUUACGCCGUUCGGAUCUGCACUUCC,-0.673
CAAGUCCUGUGCUACACAUCGUAUGUACCGAAUCGGAAAAAAAGGUUUGGAAAGGAAAGUAUUAUGUUACGCCGUUCGGAUCUGCACUUC,-1.28
UUGUGAUAGCCAAGUGGGACUACACCGCCCAGCAGGACCAGGAGCUGGACAUCAAGAAGAACGAGCGGCUGUGGUUGCUGGACGACUCCA,-1.65
CCUGUGCUACACAUCGUAUGUACCGAAUCGGGGAAAAAAGGGGAAAAAAGGGGAAAAAAGGAAAGUAUUAUGUUACGCCGUUCGGAUCUG,-0.577
GCAGGAAGUAAAAACAAAUGGAAAUGCUUCGGAUAGUGGCAGGGGUGGGGGUUGCUAAGGAAAGGGUGGGAUGGGAGAGGGUAAAGAGUU,0.492
CCUCAAGUCCUGUGCUACACAUCGUAUGUACCGAAUCGGUUUGGAGGAAAGGAAAGUAUUAUGUUACGCCGUUCGGAUCUGCACUUCCAG,0.226
CUCAAGUCCUGUGCUACACAUCGUAUGUACCGAAUCGGAGGUUUUUGGUUUGGAAAGUAUUAUGUUACGCCGUUCGGAUCUGCACUUCCA,-0.689

# Series 2
# Target: ABI1, truncated, D143A, DHFR fusion (Arabidopsis thaliana)
# Technique: DHFR PCA, deep sequencing
# Medium: yeast
# Setting: methotrexate growth selection, single substitutions
# Together with: (+)-ABA 58 µM
# Relative to: wild-type fitted maximum
# Direction: higher = stronger binding
# Starting sequence: PYL1, truncated, DHFR fusion (Arabidopsis thaliana); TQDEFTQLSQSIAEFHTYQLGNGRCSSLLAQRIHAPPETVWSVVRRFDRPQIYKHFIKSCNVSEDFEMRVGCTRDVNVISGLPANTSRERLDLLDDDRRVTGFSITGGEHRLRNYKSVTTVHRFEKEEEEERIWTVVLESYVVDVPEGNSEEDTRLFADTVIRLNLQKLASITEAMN
Variant,relative binding score
S104Y,12.3%
E109H,75%
F157R,0.18%
S140E,-1.92%
D92G,16.1%
H55N,79.6%

# Series 3
# Target: PABPC1L2, full length, GST fusion (mouse, UniProt A0ABA7IW68)
# Technique: RNAcompete
# Molecule type: RNA
# Medium: in vitro
# Tested at: 20 nM
# Setting: 7-mer, probes averaged, single round
# Relative to: mean of 7-mers
# Direction: higher = stronger binding
# Construct (chain): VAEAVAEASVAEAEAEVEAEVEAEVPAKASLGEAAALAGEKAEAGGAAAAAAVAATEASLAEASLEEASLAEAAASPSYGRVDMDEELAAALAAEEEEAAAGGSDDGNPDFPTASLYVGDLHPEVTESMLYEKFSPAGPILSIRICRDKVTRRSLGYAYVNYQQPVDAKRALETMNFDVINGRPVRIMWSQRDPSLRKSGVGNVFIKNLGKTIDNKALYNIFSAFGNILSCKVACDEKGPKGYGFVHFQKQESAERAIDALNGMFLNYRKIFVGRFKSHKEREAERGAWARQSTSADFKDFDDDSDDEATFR
Oligonucleotide,7-mer Z-score
CGGGUGU,0.046
UAGGGUG,0.108
ACACGAC,0.117
CUUGACA,-0.309
AGAGUCG,-0.333
GGGUAAA,0.833
ACGCAAU,0.00798

# Single results of other studies
Substance,target,assay,system,setting,scale,quantity,result
"PhoQ, residues 284 288 289 292 302 303 SCEHLI","PhoP, residues 12 14 15 18 19 QYCSL (Escherichia coli, UniProt P23836)","Sort-seq, refers to: YFP reporter",E. coli,"PhoQ-PhoP variant library, together with: 10 µM Mg2+","relative to: high Mg2+ state, higher = stronger signaling",fold induction,17.7

# Excerpt of the above (series 3):
Oligonucleotide,7-mer Z-score
ACACGAC,0.117
CUUGACA,-0.309
AGAGUCG,-0.333
GGGUAAA,0.833
